# Experimental data of several laboratories.
# Values joined by “and” are separate records of one study, mostly repeats; a detail may differ. Numbers after ± are the reported error.
Compound,target or system,assay,system,setting,measurement,result
NC(=O)[C@@H]1CC(F)(F)CN1C(=O)c1ccc(N2CC(F)(F)C2)c(OCC2CC2)n1,,,C57BL/6 mice,"intravenous, 0.5 mg/kg",half-life,1.78 h
C[C@H]1N=C(c2ccccc2F)c2cc(Br)ccc2-n2cnc(C(=O)O)c21,,,"mice, blood","oral gavage, 100 mg/kg",half-life,0.837 h
CCCCC/C=C/C(=O)CCc1ccc(O)c(OC)c1,human coronavirus OC43,virus-induced cell killing,MRC-5,screen,maximum inhibition,5.42%
Cc1nc([C@@](C)(CC2CC2)NC(=O)c2cc(OCC(F)(F)F)c(C3CC3)cn2)no1,,,C57BL/6 mice,"oral, 2.8 mg/kg",half-life,8.42 h
Cc1[nH]c(C)c(S(=O)(=O)Nc2ccc(S(F)(F)(F)(F)F)cc2)c1C(=O)N1CCC(F)(F)C1,,,"mice, brain","intraperitoneal, 40 mg/kg",half-life,> 8 h
Cc1ncc2n1-c1ccc(Cl)cc1C(c1ccccc1F)=NC2,,,"wild-type mice, plasma","intravenous, 0.3 mg/kg, added: 14-day BC 500 mg/kg",half-life,0.27 ± 0.0183 h
C[C@H]1COCCN1c1nc(NCc2cccnc2C(F)(F)F)c2cccnc2n1,,,BALB/c mice,"intravenous, 5 mg/kg",half-life,3.5 h
CC[C@H](C)[C@H](NC(=O)[C@H](Cc1ccccc1)NC(=O)[C@H](CCC(=O)O)NC(=O)[C@H](CCCCN)NC(=O)[C@H](C)NC(=O)[C@H](C)NC(=O)[C@H](CCC(N)=O)NC(=O)CNC(=O)[C@H](CCC(=O)O)NC(=O)[C@H](CC(C)C)NC(=O)[C@H](Cc1ccc(O)cc1)NC(=O)[C@H](CO)NC(=O)[C@H](CO)NC(=O)[C@@H](NC(=O)[C@H](CC(=O)O)NC(=O)[C@H](CO)NC(=O)[C@@H](NC(=O)[C@H](Cc1ccccc1)NC(=O)[C@@H](NC(=O)CNC(=O)[C@H](CCC(=O)O)NC(=O)[C@H](C)NC(=O)N(N)Cc1c[nH]cn1)[C@@H](C)O)[C@@H](C)O)C(C)C)C(=O)N[C@@H](C)C(=O)N[C@@H](Cc1c[nH]c2ccccc12)C(=O)N[C@@H](CC(C)C)C(=O)N[C@H](C(=O)N[C@@H](CCCNC(=N)N)C(=O)NCC(=O)N[C@@H](CCCNC(=N)N)C(=O)NCC(=O)O)C(C)C,,,"male ICR mice, plasma","intravenous bolus, 1 mg/kg",half-life,1.79 h and 2.11 h and 1.09 h
COc1cc(C)[nH]c(=O)c1CNC(=O)c1c(C)n([C@H](C)C2CCN(CC(F)(F)F)CC2)c2ccccc12,,,"female CB17 SCID mice, HT-1376 xenograft, plasma","75 mg/kg, day 1",half-life,1.24 h
O=C(O)CCCCC(CCSCc1ccccc1)SCc1ccccc1 (stereo not shown),human coronavirus OC43,virus-induced cell killing,MRC-5,screen,maximum inhibition,6.05%

# A few entries again:
Compound,target or system,assay,system,setting,measurement,result
COc1cc(C)[nH]c(=O)c1CNC(=O)c1c(C)n([C@H](C)C2CCN(CC(F)(F)F)CC2)c2ccccc12,,,"female CB17 SCID mice, HT-1376 xenograft, plasma","75 mg/kg, day 1",half-life,1.24 h
O=C(O)CCCCC(CCSCc1ccccc1)SCc1ccccc1 (stereo not shown),human coronavirus OC43,virus-induced cell killing,MRC-5,screen,maximum inhibition,6.05%
